Measurements from different studies.
Protocols differ between the studies behind these lines. Several values in a cell are separate wells, animals, samples, runs or records.
Target: Protein kinase C gamma type (PRKCG, Homo sapiens, UniProt P05129)

`Nc1ncc(-c2cc(-c3cnn(CC(F)(F)F)c3)ncc2F)nc1C(=O)NC1CNCC(F)C1` (stereo not shown) has a remaining activity of 74.6% (enzyme activity; 1 µM; relative to: DMSO control).
The remaining activity of `COCC12C(=O)NC3C4(C(OC)CC1O)C1CC5(O)C(OC)C(O)C(OC(C)=O)(C1C5OC(=O)c1ccccc1)C3(O)C(OC)C24` (stereo not shown) is reported as 115% and 112% (kinase activity, inhibitor, ProQinase kinase profiling; 25 µM; relative to: control).
For `Cc1cccc(O[C@H]2CCC[C@@H](C(C)CNCc3ccncc3)C2)c1` (relative stereo), the inhibition was 3% (enzyme activity; 1 µM).
The remaining activity of `O=c1c(-c2ccc(Cl)c(CN3CCOCC3)c2)coc2cc(O)ccc12` is reported as 100% (enzyme activity, inhibitor; 1 µM).
With `CCn1cc(C(=O)O)c(=O)c2c(N)c(F)c(NC3CCCCC3)cc21` the inhibition was 16.9% (kinase activity; 0.1 µM, together with: ATP at Km).
`O=C(Cc1ccc(OCc2ccccc2)cc1)NC1(C(=O)O)CCN(C(=O)c2ccc(-c3cccc(Cl)c3)cc2)CC1` — result for “activity vs control”: 99% (enzyme activity, inhibitor; 10 µM).
Under “activity vs control”, `CNC(=O)C[C@H](Cc1ccc(C#N)cc1)NC(=O)c1cc(-c2ccc(CN[C@H](C)c3ccc(C)cc3)o2)ccc1Cl` is recorded as 105% (enzyme activity, inhibitor; 1 µM).
With `NC(=O)C[C@H]1CCc2sc3ncnc(O[C@H]4CC[C@H](N5CCOCC5)CC4)c3c21` the inhibition was 6% (enzyme activity, inhibitor; 10 µM).
For `CN1CC[C@@H](COc2cnc(C#N)cc2-c2ccn3nc(NC(=O)C4CC4)cc3c2)C1`, the inhibition was -9% (enzyme activity, inhibitor; 1 µM).
For `NC(=O)[C@@H](O)C[C@H]1CCc2sc3ncnc(O[C@H]4CC[C@H](N5CCOCC5)CC4)c3c21`, the inhibition was 1% (enzyme activity, inhibitor; 10 µM).
With `C=CC(=O)Nc1cccc(-c2cnc3[nH]cc(C(=O)NC(C)(C)C)c3n2)c1` the inhibition was 29% and 32% (kinase activity; 0.1 µM).
The remaining activity of `O=C=[N][Ru-4]123([n]4c5ccc(O)cc5c5c6c(c7cc(F)c[n+]1c7c54)C(=O)NC6=O)[S+]1CC[S+]2CC[S+]3CC1` (stereo not shown) is reported as 99% (enzyme activity; 100 nM, human enzyme, together with: 10 µM ATP; relative to: untreated).
For `COc1ccc(NC(=O)Nc2ccc3c(c2)C(=O)N(C(C)CO)CC(C)C(CN(C)Cc2ccc4c(c2)OCO4)O3)cc1` (stereo not shown), the remaining activity was 87% (kinase activity, KinaseProfiler; 0.03 µM, species human; relative to: control).
`COc1c(OCCCN2CCOCC2)ccc2c1N=C(NC(=O)c1cnc(N)nc1)N1CCN=C21` gave a remaining activity of 103% (kinase activity, inhibitor; 1 µM; relative to: untreated control).
With `CN1CCN(Cc2ccc(-c3ccc(CO[C@H]4CCC[C@@H]4NC(=O)c4cc(-c5cnn(C)c5)cnc4N)cc3)cc2)CC1` the inhibition was 17% (enzyme activity, inhibitor; 0.1 µM).
The inhibition of `C=CC(=O)N1Cc2nc(-c3cc(-c4cc(Cl)cnc4Cl)c(F)cc3F)n(-c3ccncn3)c2C1` is reported as 2.3% (cell-free assay; 1 µM).

Some of these lines once more:
`Nc1ncc(-c2cc(-c3cnn(CC(F)(F)F)c3)ncc2F)nc1C(=O)NC1CNCC(F)C1` (stereo not shown) has a remaining activity of 74.6% (enzyme activity; 1 µM; relative to: DMSO control).
